Measurements pooled from the literature.
Parts stem from different laboratories: compare values within a part only. Positions count from the first letter of the parent shown.

Study 1
Target: Sal-like protein 4, full length isoform A (SALL4, Homo sapiens, UniProt Q9UJQ4, residues 1-1053)
Sequence of UniProt Q9UJQ4 (whole entry, looked up): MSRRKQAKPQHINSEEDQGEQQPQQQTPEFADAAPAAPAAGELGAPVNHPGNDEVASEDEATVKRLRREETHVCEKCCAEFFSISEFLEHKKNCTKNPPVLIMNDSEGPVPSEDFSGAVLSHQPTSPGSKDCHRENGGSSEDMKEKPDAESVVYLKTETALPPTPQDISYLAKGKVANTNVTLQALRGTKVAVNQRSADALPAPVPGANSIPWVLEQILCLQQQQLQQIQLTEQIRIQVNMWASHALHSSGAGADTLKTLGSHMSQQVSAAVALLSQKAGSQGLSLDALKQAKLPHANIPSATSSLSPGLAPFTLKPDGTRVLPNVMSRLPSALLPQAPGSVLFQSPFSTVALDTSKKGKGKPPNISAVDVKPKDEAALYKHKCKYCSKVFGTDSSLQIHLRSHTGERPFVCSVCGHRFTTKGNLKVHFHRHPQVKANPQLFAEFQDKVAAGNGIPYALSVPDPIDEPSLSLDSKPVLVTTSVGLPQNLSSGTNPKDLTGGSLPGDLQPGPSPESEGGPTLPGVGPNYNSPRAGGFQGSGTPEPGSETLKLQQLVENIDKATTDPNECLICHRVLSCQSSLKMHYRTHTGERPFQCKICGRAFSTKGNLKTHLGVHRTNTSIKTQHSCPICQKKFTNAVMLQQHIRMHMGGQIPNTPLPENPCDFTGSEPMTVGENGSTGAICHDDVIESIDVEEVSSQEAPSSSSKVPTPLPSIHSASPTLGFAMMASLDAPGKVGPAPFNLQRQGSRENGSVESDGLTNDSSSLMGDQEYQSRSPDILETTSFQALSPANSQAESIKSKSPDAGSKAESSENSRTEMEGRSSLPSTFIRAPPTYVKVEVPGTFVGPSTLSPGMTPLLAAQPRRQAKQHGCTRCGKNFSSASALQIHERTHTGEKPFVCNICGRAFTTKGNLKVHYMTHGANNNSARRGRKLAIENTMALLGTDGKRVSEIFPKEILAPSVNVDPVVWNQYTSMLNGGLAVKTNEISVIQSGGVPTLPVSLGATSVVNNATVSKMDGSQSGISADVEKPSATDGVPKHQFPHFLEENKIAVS
Method: universal PBM
Molecule type: double-stranded DNA, one strand shown
Medium: in vitro
Concentration: 600 nM
Setting: 8-mer, flanks averaged, mean of replicates
Reading: higher = stronger binding
Quantity: E-score
GCAACGAC: -0.199
AGGATTTG: 0.0493
CTACCGTC: -0.221
CGCATTGC: -0.077
AAAGTACT: 0.101
CAACTAGA: 0.133
AGTTGTGC: -0.12
ACATAACA: 0.275
GAGTTGTA: 0.155
CGGTATGA: 0.125
CTATGGCC: -0.16
ACATGCCC: -0.117
TGTAAAAA: 0.326
AGTTGACG: 0.0476
CGCTTTTC: -0.0232
AGTGGTCA: -0.161
GTAATAAA: 0.402
GAGACTAA: 0.189
TGGTCAAA: 0.11
GCAGGGGC: -0.287
GAAGCACC: -0.218
GCTACCTA: 0.043
AAGGGGTA: -0.0703
GACAAATC: 0.135
GAAGAGTA: 0.152

Study 2
Target: Fragile X messenger ribonucleoprotein 1, C-terminal low-complexity region (Fmr1, Mus musculus, UniProt P35922)
Method: RNA Bind-n-Seq
Molecule type: RNA
Medium: in vitro
Concentration: 200 nM
Setting: whole 134-nt RNA, ends assumed
Added: 150 mM KCl
Relative to: input library
Reading: higher = stronger binding
Quantity: log2 enrichment
Shared flanks, not repeated: GGGAGUUCUACAGUCCGACGAUC … UGGAAUUCUCGGGUGUCAAGG
GUCCUGUGCUACACAUCGUAUGUACCGAAUCAAACCCCCCCAAAUUUUUAAAUUUAAAAAAGUAUUAUGUUACGCCGUUCGGAUCUGCAC: 0.37
CAAGUCCUGUGCUACACAUCGUAUGUACCGAAUCGGUUUUUGGAAAAAAAGGUGGAAAGUAUUAUGUUACGCCGUUCGGAUCUGCACUUC: -0.534
UGCACUGACUGGUGGUGUCAACCCAUGGCUCAACUGGAAGCACUGUGGAAGAAGAUGGAGGGUGUGGUAAGUCCAUCAGACCUGGGACCG: -0.894
CUCAAGUCCUGUGCUACACAUCGUAUGUACCGAAUCGGUUUGGAAAAAGGAGGAAAGUAUUAUGUUACGCCGUUCGGAUCUGCACUUCCA: -0.165
UGGGUGAAGAGGGACAGUUACCUUCCUGUGGGCAGUCAUAAUCUCAAGGCGGCCGCCAAGGCCAAGCUAGGCUAUGAUCCCGUGGAGCUA: -1.28
AAGUCCUGUGCUACACAUCGUAUGUACCGAAUCGGGUUUGGGAAAGGGAAAAAGGGAAAGUAUUAUGUUACGCCGUUCGGAUCUGCACUU: 0.471
UCAAGUCCUGUGCUACACAUCGUAUGUACCGAAUCGGGUUUGGGAAAGGGAGGGAAAGUAUUAUGUUACGCCGUUCGGAUCUGCACUUCC: 1.12
AGUCCUGUGCUACACAUCGUAUGUACCGAAUCGGGGAGGGGUUUUUGGGGUUUGGGGAAAGUAUUAUGUUACGCCGUUCGGAUCUGCACU: 1.04
CUCAAGUCCUGUGCUACACAUCGUAUGUACCGAAUCGGUGGAAAAAGGAAAGGAAAGUAUUAUGUUACGCCGUUCGGAUCUGCACUUCCA: -0.155
CUCAAGUCCUGUGCUACACAUCGUAUGUACCGAAUCGGCCGGGCCGGGGCCGGAAAGUAUUAUGUUACGCCGUUCGGAUCUGCACUUCCA: 0.0698

Study 3
Target: ATF1, bZIP domain (human)
Method: DHFR protein complementation
Medium: yeast
Setting: single substitutions, most at no-binding floor
Relative to: wild-type JUN-FOS pair
Reading: higher = stronger binding
Quantity: binding fitness
Starting sequence: JUN, bZIP domain (human); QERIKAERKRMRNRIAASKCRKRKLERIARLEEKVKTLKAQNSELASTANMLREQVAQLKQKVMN; partner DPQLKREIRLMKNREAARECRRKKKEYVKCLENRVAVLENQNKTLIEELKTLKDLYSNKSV
L31F: -1.49 natural log
K39E: -1.45 natural log
L38C: -1.55 natural log
V56R: -1.51 natural log
M51L: -1.4 natural log
E33A: -1.5 natural log
A29N: -1.52 natural log
A29E: -1.41 natural log
A49E: -1.44 natural log
T48L: -1.54 natural log
T48C: -1.41 natural log
E33C: -1.47 natural log
E54K: -1.49 natural log
S47N: -1.46 natural log
A40W: -1.48 natural log
E32N: -1.52 natural log
A49Y: -1.55 natural log
V35Y: -1.55 natural log
N42A: -1.51 natural log
R30I: -1.43 natural log
S43F: -1.53 natural log
Q41K: -1.39 natural log
A49M: -1.6 natural log
L45Q: -1.55 natural log
A29H: -1.39 natural log

Study 4
Target: RNA binding protein fox-1 homolog 2, RRM domain, GST-SBP tag (RBFOX2, Homo sapiens, UniProt O43251-10, residues 100-194)
Method: RNA Bind-n-Seq
Molecule type: RNA
Medium: in vitro
Concentration: 365 nM
Setting: natural RNA segment, single round, ends assumed
Relative to: no-protein control
Reading: higher = stronger binding
Quantity: RBNS enrichment (R)
Shared flanks, not repeated: GGGAGUUCUACAGUCCGACGAUC … UGGAAUUCUCGGGUGCCAA
Construct (chain): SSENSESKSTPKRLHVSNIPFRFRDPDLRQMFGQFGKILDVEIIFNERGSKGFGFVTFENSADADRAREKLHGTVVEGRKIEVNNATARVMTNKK
CCUUCUGAAAAGAAGCCCAGGGGAUGGGGCCUUCAAGGUGCCGGUUUGGAGUUCAAAUCCUGCUCCUGCAGAGGGGACCUGGGGGUCCAGGCUGGGAGAUGGGGGAACCU: 0.314
UUUGCCUUUGAUUUCCUACCACUGUCUGAGCUAUCAUAAAGCAUUCUCUUUAGUUGUGAUUUGAUUCUAUAGUCUGUUUCUAAAUGACAUUUGUCUGUUUCUUAAAUGAU: 0.935
GACAAUUUGUUCAAGGAAGUUCAUCUAAAAUAAUCUGGAGGCCUUGAAAAUGAUCCCUCUAAAAUGCUGUUGAGCUUGUGUUCAGUGUAGCAGGAGGAUCUGAACUUUUC: 0.869
GAGAAGUCUGGUUAACAUCCAUCAGCAGAAUGAGUUAAAACACACAAUGAAUUCAAUCUAUCAGGAUGUUCAUUUUUGGUAGGGAAUGGUUAAAAGAAAAGAACAAUAAG: 0.584
AUGUCGAGACUUAACGAAGGCUGAUGGAAACCCAGGAAGCCCAGUGGGCAGCUUCUGCCUAGGGCAGAGCCCACAAACCAGUGCGUCUGUGCAGAACGUCUGGAUGGACA: 0.324
CUUUGUUCAUUCUAGCCACGGGGAUGAAAGGGAUCUUUUGCAUUGCAGAGAUUUUAUAUAUAUUUUGUUUGUAAUGAGCCAUUCUCAAUAAACAUUAUUCUCACUGCAAA: 0.753
ACAAUGACGAAUCAUUCCAAGGCCAAGCUGCAACUGAGCCACUCACCCACCAACAGGAAGGCCUGGUGAAGGUUCAGGAAGUCUGGAGAGUCUCCCCAGACCAAGGUCAG: 0.365
UUCAUUUUAUCAAAAGCAGGGCCCCUUUCAGAUCUCUCUUCAUUUCACCAUACAUCUUGGAAUUCUGUAAGUUUGUAUCCUAACUUGCCCAUAUUCUAAAUUUACAUAGU: 0.902
CAUUCUUAAAAUAUUAGAUACCAGGUAGUAUAUAUUGUUUCUGUACAAAAAUGACUGUAUUCUCUCACCAGUAGGACUUAAACUUUGUUUCUCCAGUGGCUUAGCUCCUG: 0.496
GCACUGCUUUUGUAUGUGAUCUUGCAACAAACUCAGAAAUGGCUCCUUCCCAGCCCUACUGAAAAGCUUGUUUCUGGGGCCUCCUUCACGGAUUCAUAUGGUACCUUCCU: 4.1
UAUGAUCCAGCGCUCAGCCUUCGCUCUAGGAUGCUGUGGUCCCCAUUCCCAGUUCCUCCAGUGCCAGUACUUUAGCUUGGCCUAGCCCCAGUCUCAGGAACUGUUGUGGU: 0.387
AUAUUUUGUCAUCAUAAUCUUUAUGGUGGGGGCAGACUUUGCACUUACUGCAGUGCAACACUUGCACUUUAAUUUUCCUCCAACUGUCUAAAAUUAGAGCAAAUACAUUG: 0.321
